# Results collected from several papers.
# Protocols differ between the studies behind these lines. Numbers after ± are the reported error.
# B1: UGT1A9 (Homo sapiens, UniProt O60656); chain GKLLVVPMDGSHWFTMRSVVEKLILRGHEVVVVMPEVSWQLGRSLNCTVKTYSTSYTLEDLDREFKAFAHAQWKAQVRSIYSLLMGSYNDIFDLFFSNCRSLFKDKKLVEYLKESSFDAVFLDPFDNCGLIVAKYFSLPSVVFARGILCHYLEEGAQCPAPLSYVPRILLGFSDAMTFKERVRNHIMHLEEHLLCHRFFKNALEIASEILQTPVTEYDLYSHTSIWLLRTDFVLDYPKPVMPNMIFIGGINCHQGKPLPMEFEAYINASGEHGIVVFSLGSMVSEIPEKKAMAIADALGKIPQTVLWRYTGTRPSNLANNTILVKWLPQNDLLGHPMTRAFITHAGSHGVYESICNGVPMVMMPLFGDQMDNAKRMETKGAGVTLNVLEMTSEDLENALKAVINDKSYKENIMRLSSLHKDRPVEPLDLAVFWVEFVMRHKGAPHLRPAAHDLTWYQYHSLDVIGFLLAVVLTVAFITFKCCAYGYRKCLGKKGRVKKAHKSKTH
# B2: VCL 879-1066 (Homo sapiens, UniProt P18206-2); sequence looked up; chain EEKDEEFPEQKAGEVINQPMMMAARQLHDEARKWSSKGNDIIAAAKRMALLMAEMSRLVRGGSGTKRALIQCAKDIAKASDEVTRLAKEVAKQCTDKRIRTNLLQVCERIPTISTQLKILSTVKATMLGRTNISDEESEQATEMLVHNAQNLMQSVKETVREAEAASIKIRTDAGFTLRWVRKTPWYQ
# B3: FGF6 (Homo sapiens, UniProt P10767); chain SPAGTRANNTLLDSRGWGTLLSRSRAGLAGEIAGVNWESGYLVGIKRQRRLYCNVGIGFHLQVLPDGRISGTHEENPYSLLEISTVERGVVSLFGVRSALFVAMNSKGRLYATPSFQEECKFRETLLPNNYNAYESDLYQGTYIALSKYGRVKRGSKVSPIMTVTHFLPRI
# B4: Il2 Q30W (Mus musculus, UniProt P04351); chain APTSSSTSSSTAEAQQQQQQQQQQQQHLEWLLMDLQELLSRMENYRNLKLPRMLTFKFYLPKQATELKDLQCLEDELGPLRHVLDLTQSKSFQLEDAENFISNIRVTVVKLKGSDNTFECQFDDESATVVDFLRRWIAFCQSIISTSPQ
# B5: L3MBTL3 1-197 (Homo sapiens, UniProt Q96JM7-2); sequence looked up; chain MTESASSTSGQEFDVFSVMDWKDGVGTLPGSDLKFRVNEFGALEVITDENEMENVKKATATTTWMVPTAQEVFSEKTGMPFRLKDPVKVEGLQFCENCCQYGNVDECLSGGNYCSQNCARHIKDKDQKEERDVEEDNEEEDPKCSRKKKPKLSLKADTKEDGEERDDEMENKQDVRILRGSQRARRKRRGDSAVLKQ
# B6: mel-26 (Caenorhabditis elegans, UniProt Q94420); sequence looked up; chain MEPRIDGGVFIGGIGNSGNEMCSNGVPALGVSSQTEIKVEKVQHTWTVKNFSHCYQEYLENFVYLQRGDEQLTWSIKIYPKGNGENNKDFVFLCLNRVINNNVKAGKIGFKSQFKLRTAENKDIEMRIHPNPSHSDYVSYIKRDVLFPQIMPRDMIIVNVEIDVAVETITTTNEPIQFEPTNSEQQLIEDYQRLFSQELLCDFAINVNGKIIRAHKAVLAARSPVFNAMLTHQDTDEAKSSMMYINDMDYDVIYEMVYYIYCGRCNKDITDMATALLIAADKYRLEELKSHCEKYLVENINIENACSLLIIGDLYSAPKLRKRAVTYILARPKNVTGTPGWEDILKGHPNLITDIFSQIDRQSSTGATSSVSNLPGVPMDIPGITGNIVPPPSGL
# UniProt P08253, sequence (whole entry, unmodified, looked up): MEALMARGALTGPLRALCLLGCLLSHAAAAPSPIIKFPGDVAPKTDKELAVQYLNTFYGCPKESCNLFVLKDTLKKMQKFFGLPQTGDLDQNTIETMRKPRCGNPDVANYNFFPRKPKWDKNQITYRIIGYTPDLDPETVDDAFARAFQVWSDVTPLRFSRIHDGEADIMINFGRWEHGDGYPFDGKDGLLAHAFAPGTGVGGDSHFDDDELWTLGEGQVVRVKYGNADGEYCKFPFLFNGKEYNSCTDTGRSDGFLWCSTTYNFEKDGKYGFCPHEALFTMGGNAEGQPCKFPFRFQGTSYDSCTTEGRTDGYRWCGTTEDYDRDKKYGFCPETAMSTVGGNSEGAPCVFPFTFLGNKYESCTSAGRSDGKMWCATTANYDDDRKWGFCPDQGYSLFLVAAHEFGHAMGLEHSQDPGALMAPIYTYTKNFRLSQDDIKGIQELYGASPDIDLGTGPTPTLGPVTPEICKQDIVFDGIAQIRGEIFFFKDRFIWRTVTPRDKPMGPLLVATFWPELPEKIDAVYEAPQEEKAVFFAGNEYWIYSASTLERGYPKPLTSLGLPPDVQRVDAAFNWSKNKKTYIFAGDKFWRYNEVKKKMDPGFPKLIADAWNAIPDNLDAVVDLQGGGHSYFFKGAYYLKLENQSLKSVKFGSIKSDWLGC
# UniProt P0A6A8, sequence (whole entry, looked up): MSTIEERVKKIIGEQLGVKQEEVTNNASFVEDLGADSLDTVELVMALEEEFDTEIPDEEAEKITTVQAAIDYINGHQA
# UniProt P16297, sequence (whole entry, looked up): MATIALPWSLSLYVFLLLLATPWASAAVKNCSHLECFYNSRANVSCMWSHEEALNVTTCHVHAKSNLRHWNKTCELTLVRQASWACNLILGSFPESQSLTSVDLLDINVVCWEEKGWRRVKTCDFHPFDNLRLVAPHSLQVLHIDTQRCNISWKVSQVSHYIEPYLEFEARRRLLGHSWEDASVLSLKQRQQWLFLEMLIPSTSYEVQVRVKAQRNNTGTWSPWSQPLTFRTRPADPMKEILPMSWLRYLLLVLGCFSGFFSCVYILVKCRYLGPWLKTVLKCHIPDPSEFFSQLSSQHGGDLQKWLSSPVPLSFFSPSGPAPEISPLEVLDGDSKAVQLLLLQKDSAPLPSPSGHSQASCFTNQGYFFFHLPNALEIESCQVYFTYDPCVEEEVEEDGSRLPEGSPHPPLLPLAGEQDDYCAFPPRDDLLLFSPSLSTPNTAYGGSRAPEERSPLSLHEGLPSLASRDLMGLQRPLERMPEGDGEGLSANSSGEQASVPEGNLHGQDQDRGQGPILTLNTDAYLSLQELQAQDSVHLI
# UniProt Q8IY67, sequence (whole entry, unmodified, looked up): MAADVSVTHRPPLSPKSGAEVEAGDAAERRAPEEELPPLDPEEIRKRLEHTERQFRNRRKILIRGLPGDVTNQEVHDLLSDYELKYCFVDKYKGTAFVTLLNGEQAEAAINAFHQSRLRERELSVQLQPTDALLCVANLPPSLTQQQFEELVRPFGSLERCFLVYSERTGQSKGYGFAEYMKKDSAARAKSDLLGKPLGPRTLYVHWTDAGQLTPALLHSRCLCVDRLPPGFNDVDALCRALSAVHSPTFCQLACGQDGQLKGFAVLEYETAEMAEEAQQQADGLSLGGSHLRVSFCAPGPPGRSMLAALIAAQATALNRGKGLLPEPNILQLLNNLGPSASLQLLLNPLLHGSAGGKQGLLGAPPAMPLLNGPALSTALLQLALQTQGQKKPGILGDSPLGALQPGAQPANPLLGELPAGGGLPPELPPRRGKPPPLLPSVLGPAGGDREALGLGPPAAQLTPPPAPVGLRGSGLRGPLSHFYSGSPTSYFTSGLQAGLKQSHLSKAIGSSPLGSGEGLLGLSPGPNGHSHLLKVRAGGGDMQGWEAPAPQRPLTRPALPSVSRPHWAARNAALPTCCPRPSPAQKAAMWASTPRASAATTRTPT
# UniProt Q61851, sequence (whole entry, looked up): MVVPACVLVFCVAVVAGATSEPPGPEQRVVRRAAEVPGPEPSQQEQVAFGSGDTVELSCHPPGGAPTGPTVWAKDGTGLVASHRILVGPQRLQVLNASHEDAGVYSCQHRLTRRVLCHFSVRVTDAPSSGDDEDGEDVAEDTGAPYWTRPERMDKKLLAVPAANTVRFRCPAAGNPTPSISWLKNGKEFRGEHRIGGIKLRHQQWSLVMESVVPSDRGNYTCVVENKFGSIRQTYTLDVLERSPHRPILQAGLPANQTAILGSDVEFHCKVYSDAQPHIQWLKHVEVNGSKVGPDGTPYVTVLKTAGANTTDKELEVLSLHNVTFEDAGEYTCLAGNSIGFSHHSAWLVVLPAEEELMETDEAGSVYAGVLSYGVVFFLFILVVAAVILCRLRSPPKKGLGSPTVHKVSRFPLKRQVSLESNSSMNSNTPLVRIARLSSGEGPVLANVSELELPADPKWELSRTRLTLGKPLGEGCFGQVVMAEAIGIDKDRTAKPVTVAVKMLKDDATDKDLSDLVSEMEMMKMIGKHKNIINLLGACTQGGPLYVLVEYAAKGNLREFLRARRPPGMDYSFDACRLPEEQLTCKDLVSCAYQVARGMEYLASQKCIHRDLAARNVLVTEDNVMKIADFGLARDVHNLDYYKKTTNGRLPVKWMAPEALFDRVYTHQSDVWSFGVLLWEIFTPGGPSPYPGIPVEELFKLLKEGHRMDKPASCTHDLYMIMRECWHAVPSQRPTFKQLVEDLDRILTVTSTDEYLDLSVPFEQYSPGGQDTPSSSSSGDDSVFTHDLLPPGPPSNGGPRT
# UniProt Q9BPX6, sequence (whole entry, unmodified, looked up): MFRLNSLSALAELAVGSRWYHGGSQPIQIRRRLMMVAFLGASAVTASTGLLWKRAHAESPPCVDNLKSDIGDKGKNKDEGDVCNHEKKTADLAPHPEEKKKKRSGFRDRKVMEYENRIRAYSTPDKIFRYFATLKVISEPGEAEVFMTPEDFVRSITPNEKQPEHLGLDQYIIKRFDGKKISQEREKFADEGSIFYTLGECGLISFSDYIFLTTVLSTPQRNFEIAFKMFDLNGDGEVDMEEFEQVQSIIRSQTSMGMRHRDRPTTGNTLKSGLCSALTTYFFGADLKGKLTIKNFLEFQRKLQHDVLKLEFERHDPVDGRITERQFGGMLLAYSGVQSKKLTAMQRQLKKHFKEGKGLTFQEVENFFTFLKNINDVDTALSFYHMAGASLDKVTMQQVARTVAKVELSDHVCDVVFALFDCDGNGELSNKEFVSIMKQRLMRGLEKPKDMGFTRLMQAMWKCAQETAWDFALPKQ
# UniProt P31266, sequence (whole entry, unmodified, looked up): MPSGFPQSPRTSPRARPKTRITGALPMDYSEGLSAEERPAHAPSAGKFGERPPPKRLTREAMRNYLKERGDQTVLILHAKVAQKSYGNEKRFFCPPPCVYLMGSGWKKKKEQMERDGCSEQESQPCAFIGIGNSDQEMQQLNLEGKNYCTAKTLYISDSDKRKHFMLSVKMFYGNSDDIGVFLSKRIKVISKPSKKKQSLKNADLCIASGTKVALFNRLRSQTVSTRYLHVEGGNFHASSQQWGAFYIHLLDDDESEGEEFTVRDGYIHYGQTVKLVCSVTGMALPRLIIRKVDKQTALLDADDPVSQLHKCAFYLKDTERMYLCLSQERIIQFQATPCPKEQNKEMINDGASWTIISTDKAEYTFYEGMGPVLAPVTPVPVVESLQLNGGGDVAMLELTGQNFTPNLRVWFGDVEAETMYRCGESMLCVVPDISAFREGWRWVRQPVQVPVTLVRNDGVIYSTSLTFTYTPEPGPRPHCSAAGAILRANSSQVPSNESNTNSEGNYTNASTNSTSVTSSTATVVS
# UniProt Q8IYU8, sequence (whole entry, looked up): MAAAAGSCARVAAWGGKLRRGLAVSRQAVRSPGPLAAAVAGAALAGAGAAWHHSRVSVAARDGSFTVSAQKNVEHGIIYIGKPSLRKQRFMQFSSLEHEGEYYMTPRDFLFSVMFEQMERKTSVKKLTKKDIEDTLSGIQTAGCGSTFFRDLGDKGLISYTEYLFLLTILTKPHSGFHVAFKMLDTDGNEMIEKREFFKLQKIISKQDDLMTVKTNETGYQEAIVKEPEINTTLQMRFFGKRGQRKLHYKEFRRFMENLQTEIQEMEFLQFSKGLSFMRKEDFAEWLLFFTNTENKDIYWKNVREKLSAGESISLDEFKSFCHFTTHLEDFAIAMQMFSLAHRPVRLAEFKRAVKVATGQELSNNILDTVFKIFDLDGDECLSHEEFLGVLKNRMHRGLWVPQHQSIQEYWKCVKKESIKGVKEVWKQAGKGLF
Molecule,tested on,assay,test system,setting,scale,endpoint,result
B1 (UGT1A9),COc1cc(OC)c2c(=O)c(O)c(-c3ccccc3)oc2c1,steady-state kinetics,,"pH 7.4, 37 °C",,Vmax/Km,26000 µL/min/mg
B2 (VCL 879-1066),"RAVER1 39-321 (Homo sapiens, UniProt Q8IY67)",ITC,,"23 °C, NaCl 150 mM",,ΔH,-10.5 ± 0.2 kcal/mol
"MICU2 (Homo sapiens, UniProt Q8IYU8)","MICU1 C463S (Homo sapiens, UniProt Q9BPX6)",co-IP,HEK,,"relative to: MICU1-FLAG, higher = weaker precipitation",relative expression needed,50 fold
fabF S130A (Escherichia coli),"acpP C12-acylated 1-78, C12 acyl on 4'-phosphopantetheine (Escherichia coli, UniProt P0A6A8)","holo-AcpP formation, HPLC",,"10 µM, together with: malonyl-CoA",,condensation rate,1.69 min⁻¹
B3 (FGF6),"FGFR3 isoform IIIc (unknown, UniProt Q61851)","cell proliferation, MTT",BaF3-FGFR3c,"20 nM, 48 h, together with: chondroitin sulfate D 4.9 µg/mL","relative to: FGF 1 with heparin, higher = more proliferation",cell proliferation,2%
B4 (Il2 Q30W),"Il2rb (Mus musculus, UniProt P16297)",flow cytometry,mouse splenocytes,,"relative to: wildtype IL2, higher = greater increase",pSTAT5+ CD8 T cells,100 fold
SIIVFEKL,OT-I CD8+ T cells,"measured: IFN-gamma, TNF-alpha",peptide,"concentration not given, primed 5 d, OVA257 100 ng/mL restimulation, together with: no TGF-beta1",,IFN-gamma+ TNF-alpha+ cells,0.71%
"MYO2 (Saccharomyces cerevisiae, UniProt P19524)",ACT1/TPM1 filaments (Saccharomyces cerevisiae/Gallus gallus),single-molecule TIRF motility,,"0.2 nM, pH 7.4, 22 °C, together with: tropomyosin 1 µM",higher = longer runs,run length,0.53 µm
TIMP2 N-terminal domain S4E/N38Q/V71N/H97R/T99S,"MMP2 (Homo sapiens, UniProt P08253)","fluorogenic substrate cleavage, inhibitor, enzyme inhibition assay",,apparent,,Ki,84 nM
MMP2 fragment R252A/F297A/R368A (Homo sapiens),"COL1A1/COL1A2 denatured, gelatin (Homo sapiens)","zymography, DQ-gelatin assay",,,"relative to: wild type, higher = less cleavage",reduction in gelatin cleavage,90%
B5 (L3MBTL3 1-197),"Rbpj 53-474 (Mus musculus, UniProt P31266)",ITC,,"pH 6.5, 25 °C, NaCl 150 mM",,ΔH,-7.2 kcal/mol
B6 (mel-26),"mei-1/mei-2, pS92 (Caenorhabditis elegans)",dot blot,,"4 °C, native",,binding,binds
"TFPI endogenous, on cells (Homo sapiens, UniProt P10646)",F10 factor Xa,factor Xa inhibition,HUVEC,"100 µg/mL total protein, initial, methyl-β-cyclodextrin",,free factor Xa,0.09 nM
SIYNFEKL,OT-I CD8+ T cells,,peptide,"primed 5 d, OVA257 100 ng/mL restimulation, together with: no TGF-beta1",,IFN-gamma single producers,0.27%
Pcsk9 fragment (Mus musculus),"Ldlr (Mus musculus, UniProt P35951)",ELISA,plasma,sham group,,bound PCSK9,36.6 ng/mL

# A few entries again:
Molecule,tested on,assay,test system,setting,scale,endpoint,result
B6 (mel-26),"mei-1/mei-2, pS92 (Caenorhabditis elegans)",dot blot,,"4 °C, native",,binding,binds
